Assay results from different studies.
Protocols differ between the studies behind these lines. ± gives the spread as reported.

`Cc1ccc(NCc2ccc(Oc3ccccn3)cc2)cc1` gave an MIC of 21.6 µM (Mycobacterium tuberculosis; H37Rv, GAST-Fe medium; 1 weeks, pH 6.6).
`pneumocandin I` gave an MIC of 0.2 µg/mL (Candida tropicalis; broth microdilution, resazurin; ATCC 750; 24 h, 35 °C).
For `CC1(C)SC2C(NC(=O)C(NC(=O)C3=C(O)CN(c4ccccc4)C3=O)c3ccccc3)C(=O)N2C1C(=O)O` (stereo not shown), the MIC was 100 µg/mL (Escherichia coli; broth microdilution; BW25113, Mueller-Hinton broth; together with: CCCP 50 µg/mL).
`Cc1ccc(S(=O)(=O)N2C(=O)CSC2c2cccc(Br)c2)cc1` (stereo not shown) gave an MIC of 32 µg/mL (Salmonella enterica; microbial growth, broth dilution; TYPHIMURIUM).
The MIC of `CN(C)C(=N)N=C(N)N` is reported as over 512 µM (Mycobacteroides abscessus; microbial growth; 19977).
The MIC of `Cc1[nH]c(C(=O)Nc2ccc(-c3n[nH]c(=O)o3)cc2N2CCC[C@H](N)C2)c(Cl)c1Cl.Cl` is reported as 2 µg/mL (Enterococcus faecium; microbial growth, broth dilution; ATCC35667).
With `Fc1ccc(NCc2ccc(Oc3ccccn3)cc2)cc1` the MIC was over 50 µM (Mycobacterium tuberculosis; H37Rv, 7H9/ADC/Tween medium; 1 weeks).
The MIC of `CN1CC(O)=C(C(=O)NC(C(=O)NC2C(=O)N3C2SC(C)(C)C3C(=O)O)c2ccccc2)C1=O` (stereo not shown) is reported as 100 µg/mL (Escherichia coli; broth microdilution; BW25113, Mueller-Hinton broth; 18 h, without clavulanic acid).
For `Cc1ccc(S(=O)(=O)N2C(=O)CSC2c2ccccc2)cc1` (stereo not shown), the MIC was over 256 µg/mL (Salmonella enterica; microbial growth, broth dilution; TYPHIMURIUM).
With `Fc1ccccc1NCc1ccc(Oc2ccccn2)cc1` the MIC was over 100 µM (Mycobacterium tuberculosis; H37Rv, 7H9/ADC/Tween medium; 1 weeks).
The MIC of `CCc1cc(=O)c2c(O)c3ccoc3c(OC)c2o1` is reported as 64 µg/mL (Staphylococcus epidermidis; broth microdilution; ATCC 35984; 19 h, 35 °C).
The MIC of `COc1cccc(NCc2ccc(Oc3ccccn3)cc2)c1` is reported as 25 µM (Mycobacterium tuberculosis; H37Rv, GAST-Fe medium; 1 weeks, pH 6.6).
`COC(=O)c1ccc(NC(=O)c2[nH]c(C)c(Cl)c2Cl)c(N2CCNCC2)c1.Cl` gave an MIC of over 32 µg/mL (Enterococcus faecium; microbial growth, broth dilution; ATCC35667).
`CC1(C)S[C@@H]2[C@H](NC(=O)[C@H](N)c3ccccc3)C(=O)N2[C@H]1C(=O)O` gave an MIC of 0.62 µg/mL (Limosilactobacillus fermentum; broth microdilution; ATCC 14931, MRS medium; 24 h, 37 °C).
For `CC1(C)SC2C(NC(=O)C(NC(=O)C3=C(O)C(Cc4ccc(O)cc4)NC3=O)c3ccccc3)C(=O)N2C1C(=O)O` (stereo not shown), the MIC was 25 µg/mL (Escherichia coli; broth microdilution; BW25113, Mueller-Hinton broth; together with: 2,2'-bipyridyl 30 µg/mL).
`CC1(C)S[C@@H]2[C@H](NC(=O)[C@H](N)c3ccccc3)C(=O)N2[C@H]1C(=O)O` gave an MIC of 8 µg/mL (Salmonella enterica; microbial growth, broth dilution; TYPHIMURIUM).
For `CCOC(=O)c1c(N)csc1-c1cn(-c2ccccc2)nc1-c1ccc(C)cc1`, the MIC was 0.124 ± 0.6 µg/mL (Bacillus subtilis; broth microdilution; clinical urinary isolate; compound gamma-irradiated 15 kGy).
`CC1(C)S[C@@H]2[C@H](NC(=O)[C@H](N)c3ccccc3)C(=O)N2[C@H]1C(=O)O` has an MIC of over 367 µM (Enterococcus faecium).
The MIC of `Clc1ccc(NCc2ccc(Oc3ccccn3)cc2)cc1` is reported as 40 µM (Mycobacterium tuberculosis; H37Rv, GAST-Fe medium; 1 weeks, pH 6.6).
With `CCc1cc(=O)c2c(OCC3CO3)c3ccoc3c(OC)c2o1` (stereo not shown) the MIC was over 256 µg/mL (Staphylococcus epidermidis; broth microdilution; ATCC 12228; 19 h, 35 °C).
`Brc1ccc(NCc2ccc(Oc3ccccn3)cc2)cc1` has an MIC of 35 µM (Mycobacterium tuberculosis; H37Rv, GAST-Fe medium; 1 weeks, pH 6.6).
The MIC of `Cc1ccc(S(=O)(=O)N2C(=O)CSC2c2ccc(C(C)C)cc2)cc1` (stereo not shown) is reported as over 256 µg/mL (Salmonella enterica; microbial growth, broth dilution; TYPHIMURIUM).

A few entries again:
The MIC of `CN1CC(O)=C(C(=O)NC(C(=O)NC2C(=O)N3C2SC(C)(C)C3C(=O)O)c2ccccc2)C1=O` (stereo not shown) is reported as 100 µg/mL (Escherichia coli; broth microdilution; BW25113, Mueller-Hinton broth; 18 h, without clavulanic acid).
For `Cc1ccc(S(=O)(=O)N2C(=O)CSC2c2ccccc2)cc1` (stereo not shown), the MIC was over 256 µg/mL (Salmonella enterica; microbial growth, broth dilution; TYPHIMURIUM).
With `Fc1ccccc1NCc1ccc(Oc2ccccn2)cc1` the MIC was over 100 µM (Mycobacterium tuberculosis; H37Rv, 7H9/ADC/Tween medium; 1 weeks).
The MIC of `CCc1cc(=O)c2c(O)c3ccoc3c(OC)c2o1` is reported as 64 µg/mL (Staphylococcus epidermidis; broth microdilution; ATCC 35984; 19 h, 35 °C).
